# Experimental data from different studies.
# Every numbered part comes from another study and shows a few of its results, in no order.
# Sequence of UniProt O15530 (whole entry, looked up): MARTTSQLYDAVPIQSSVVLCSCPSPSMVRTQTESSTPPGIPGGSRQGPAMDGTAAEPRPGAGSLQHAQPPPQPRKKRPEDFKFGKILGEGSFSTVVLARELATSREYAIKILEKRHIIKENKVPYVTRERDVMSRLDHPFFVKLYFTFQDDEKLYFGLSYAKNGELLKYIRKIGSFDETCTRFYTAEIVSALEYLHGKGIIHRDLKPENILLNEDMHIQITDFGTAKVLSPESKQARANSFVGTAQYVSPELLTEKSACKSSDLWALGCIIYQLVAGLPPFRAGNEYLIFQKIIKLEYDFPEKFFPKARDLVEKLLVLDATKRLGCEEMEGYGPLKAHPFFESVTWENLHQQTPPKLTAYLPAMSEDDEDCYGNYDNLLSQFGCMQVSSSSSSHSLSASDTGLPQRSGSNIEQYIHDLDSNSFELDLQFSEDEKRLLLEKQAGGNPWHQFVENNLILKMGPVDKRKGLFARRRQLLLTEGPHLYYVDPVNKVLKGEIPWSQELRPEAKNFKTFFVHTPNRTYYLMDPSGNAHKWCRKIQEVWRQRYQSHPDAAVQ
# Sequence of UniProt Q9H3Y6 (whole entry, looked up): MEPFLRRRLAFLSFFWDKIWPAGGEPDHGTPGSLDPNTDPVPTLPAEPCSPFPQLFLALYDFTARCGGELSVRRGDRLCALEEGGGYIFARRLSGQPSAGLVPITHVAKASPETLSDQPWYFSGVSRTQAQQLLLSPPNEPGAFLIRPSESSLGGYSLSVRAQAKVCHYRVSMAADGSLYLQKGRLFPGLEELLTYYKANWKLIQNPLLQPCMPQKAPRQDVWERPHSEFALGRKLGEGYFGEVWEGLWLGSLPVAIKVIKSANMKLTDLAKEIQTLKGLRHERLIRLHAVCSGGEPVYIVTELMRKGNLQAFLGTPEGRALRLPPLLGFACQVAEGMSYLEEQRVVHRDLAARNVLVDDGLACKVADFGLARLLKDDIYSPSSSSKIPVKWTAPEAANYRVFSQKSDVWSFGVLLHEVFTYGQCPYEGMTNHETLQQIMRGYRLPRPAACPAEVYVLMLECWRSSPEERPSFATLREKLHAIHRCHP
# Sequence of UniProt Q9UL54 (whole entry, looked up): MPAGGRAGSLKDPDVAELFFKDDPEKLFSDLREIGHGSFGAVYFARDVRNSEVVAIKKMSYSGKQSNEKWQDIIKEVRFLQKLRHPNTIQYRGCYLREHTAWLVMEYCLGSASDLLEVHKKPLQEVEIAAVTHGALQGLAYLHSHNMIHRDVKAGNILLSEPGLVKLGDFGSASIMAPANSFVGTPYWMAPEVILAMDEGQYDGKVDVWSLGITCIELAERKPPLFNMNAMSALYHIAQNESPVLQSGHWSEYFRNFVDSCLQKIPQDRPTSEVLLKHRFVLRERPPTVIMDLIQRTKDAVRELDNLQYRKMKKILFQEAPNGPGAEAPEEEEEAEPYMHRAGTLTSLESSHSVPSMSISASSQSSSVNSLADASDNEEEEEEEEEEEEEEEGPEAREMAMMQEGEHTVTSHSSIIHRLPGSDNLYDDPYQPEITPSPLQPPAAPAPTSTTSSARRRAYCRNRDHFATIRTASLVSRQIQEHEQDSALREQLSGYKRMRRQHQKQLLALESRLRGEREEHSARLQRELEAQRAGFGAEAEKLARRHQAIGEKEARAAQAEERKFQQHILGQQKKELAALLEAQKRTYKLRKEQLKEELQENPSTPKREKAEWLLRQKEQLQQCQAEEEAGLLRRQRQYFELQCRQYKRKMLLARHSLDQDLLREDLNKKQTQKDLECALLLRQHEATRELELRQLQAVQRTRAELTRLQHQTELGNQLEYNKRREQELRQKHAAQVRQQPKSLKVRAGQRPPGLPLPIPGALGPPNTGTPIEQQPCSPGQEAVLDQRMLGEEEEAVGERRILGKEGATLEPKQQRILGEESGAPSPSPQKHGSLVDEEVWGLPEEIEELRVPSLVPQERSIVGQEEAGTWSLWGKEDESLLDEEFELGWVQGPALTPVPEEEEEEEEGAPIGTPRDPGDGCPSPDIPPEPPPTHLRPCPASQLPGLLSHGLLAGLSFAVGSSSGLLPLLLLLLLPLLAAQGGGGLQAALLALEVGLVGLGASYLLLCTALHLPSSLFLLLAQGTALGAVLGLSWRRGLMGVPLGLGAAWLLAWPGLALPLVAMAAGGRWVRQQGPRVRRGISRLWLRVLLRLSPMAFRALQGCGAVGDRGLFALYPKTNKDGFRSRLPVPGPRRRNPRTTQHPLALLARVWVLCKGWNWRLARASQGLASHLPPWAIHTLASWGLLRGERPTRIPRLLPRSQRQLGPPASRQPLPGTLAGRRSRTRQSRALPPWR
# Sequence of UniProt P06493 (whole entry, looked up): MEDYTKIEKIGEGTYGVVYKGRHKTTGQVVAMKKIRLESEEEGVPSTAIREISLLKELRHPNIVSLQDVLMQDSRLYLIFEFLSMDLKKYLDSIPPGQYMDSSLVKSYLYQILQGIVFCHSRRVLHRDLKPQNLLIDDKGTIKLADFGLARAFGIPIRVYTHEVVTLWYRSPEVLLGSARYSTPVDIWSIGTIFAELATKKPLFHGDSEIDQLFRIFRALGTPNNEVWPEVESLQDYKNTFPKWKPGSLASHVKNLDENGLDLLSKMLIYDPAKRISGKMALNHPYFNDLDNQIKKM
# Sequence of UniProt Q9UKI8 (whole entry, looked up): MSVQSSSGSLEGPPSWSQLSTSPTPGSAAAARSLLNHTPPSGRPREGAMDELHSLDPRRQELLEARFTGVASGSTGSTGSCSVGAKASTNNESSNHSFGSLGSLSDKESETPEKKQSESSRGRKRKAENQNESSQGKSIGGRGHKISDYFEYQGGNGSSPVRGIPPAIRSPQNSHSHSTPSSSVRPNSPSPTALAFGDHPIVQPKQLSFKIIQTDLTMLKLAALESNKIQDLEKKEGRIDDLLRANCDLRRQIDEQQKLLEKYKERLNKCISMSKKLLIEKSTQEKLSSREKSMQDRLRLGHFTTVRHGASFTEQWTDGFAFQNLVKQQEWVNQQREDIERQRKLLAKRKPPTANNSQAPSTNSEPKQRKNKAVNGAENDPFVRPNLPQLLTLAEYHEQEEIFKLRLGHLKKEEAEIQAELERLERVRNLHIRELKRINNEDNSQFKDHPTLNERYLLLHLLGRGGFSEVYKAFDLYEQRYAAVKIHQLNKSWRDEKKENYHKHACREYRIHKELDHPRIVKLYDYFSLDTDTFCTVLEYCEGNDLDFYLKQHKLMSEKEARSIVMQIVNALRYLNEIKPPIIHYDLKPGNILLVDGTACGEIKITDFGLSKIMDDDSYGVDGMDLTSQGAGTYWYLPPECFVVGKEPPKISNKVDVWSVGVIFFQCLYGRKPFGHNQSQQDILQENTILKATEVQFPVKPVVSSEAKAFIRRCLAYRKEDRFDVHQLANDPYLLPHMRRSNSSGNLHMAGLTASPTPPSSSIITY
# Sequence of UniProt Q01718 (whole entry, looked up): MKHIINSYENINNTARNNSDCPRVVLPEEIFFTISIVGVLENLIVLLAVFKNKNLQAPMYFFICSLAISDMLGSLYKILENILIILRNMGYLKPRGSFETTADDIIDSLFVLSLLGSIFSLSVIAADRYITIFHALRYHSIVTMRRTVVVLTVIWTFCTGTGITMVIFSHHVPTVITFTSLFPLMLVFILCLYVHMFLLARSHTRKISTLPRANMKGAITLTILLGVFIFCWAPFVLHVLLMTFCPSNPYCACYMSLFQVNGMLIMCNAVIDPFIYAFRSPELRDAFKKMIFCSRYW
# Sequence of UniProt P24723 (whole entry, looked up): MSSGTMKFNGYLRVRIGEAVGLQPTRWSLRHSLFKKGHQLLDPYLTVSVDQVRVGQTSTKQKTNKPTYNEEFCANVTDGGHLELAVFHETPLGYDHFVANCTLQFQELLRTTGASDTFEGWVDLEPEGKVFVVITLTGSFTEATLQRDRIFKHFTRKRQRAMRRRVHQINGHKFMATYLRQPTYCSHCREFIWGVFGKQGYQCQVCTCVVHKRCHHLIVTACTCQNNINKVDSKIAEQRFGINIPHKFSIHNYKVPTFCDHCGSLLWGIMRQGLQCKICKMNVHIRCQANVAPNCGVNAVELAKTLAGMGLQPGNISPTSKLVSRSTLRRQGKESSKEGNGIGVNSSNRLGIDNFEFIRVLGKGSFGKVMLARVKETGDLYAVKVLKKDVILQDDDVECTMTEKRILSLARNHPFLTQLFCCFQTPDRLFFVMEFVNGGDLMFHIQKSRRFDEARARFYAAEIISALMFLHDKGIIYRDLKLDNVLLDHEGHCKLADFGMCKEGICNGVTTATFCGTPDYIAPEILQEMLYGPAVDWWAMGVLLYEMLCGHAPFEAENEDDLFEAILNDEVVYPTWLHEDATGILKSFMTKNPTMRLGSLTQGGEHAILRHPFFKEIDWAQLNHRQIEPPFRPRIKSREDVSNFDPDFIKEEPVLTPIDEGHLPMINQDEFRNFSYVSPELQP
# Sequence of UniProt Q00534 (whole entry, looked up): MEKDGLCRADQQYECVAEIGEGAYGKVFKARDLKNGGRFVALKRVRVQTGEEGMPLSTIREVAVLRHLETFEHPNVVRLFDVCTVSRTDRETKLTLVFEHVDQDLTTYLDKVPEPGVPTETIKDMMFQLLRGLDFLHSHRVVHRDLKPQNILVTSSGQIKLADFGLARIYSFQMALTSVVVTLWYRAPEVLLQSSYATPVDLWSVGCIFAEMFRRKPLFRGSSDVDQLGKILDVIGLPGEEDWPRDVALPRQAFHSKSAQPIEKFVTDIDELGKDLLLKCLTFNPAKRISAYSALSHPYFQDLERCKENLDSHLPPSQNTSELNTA
# Sequence of UniProt O75716 (whole entry, looked up): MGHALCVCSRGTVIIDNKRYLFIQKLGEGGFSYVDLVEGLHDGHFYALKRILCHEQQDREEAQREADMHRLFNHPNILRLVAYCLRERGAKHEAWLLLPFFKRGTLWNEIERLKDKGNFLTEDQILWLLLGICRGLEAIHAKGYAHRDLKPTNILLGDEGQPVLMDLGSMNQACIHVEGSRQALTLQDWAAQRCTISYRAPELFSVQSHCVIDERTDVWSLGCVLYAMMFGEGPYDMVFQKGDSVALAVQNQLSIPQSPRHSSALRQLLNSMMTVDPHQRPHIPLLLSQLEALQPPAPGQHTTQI

# Study 1
# Compound: NC(=O)c1ccc(N(C(N)=O)c2c(F)cccc2F)nc1-c1ccc(F)cc1F
# Read-out: enzyme activity
# Action: inhibitor
# Tested at: 0.5 µM
# Relative to: control
target,remaining activity
"Tyrosine-protein kinase ABL1 (ABL1, Homo sapiens, UniProt P00519)",99.7%
"Serine/threonine-protein kinase WNK3 (WNK3, Homo sapiens, UniProt Q9BYP7)",96.6%
"Homeodomain-interacting protein kinase 2 (HIPK2, Homo sapiens, UniProt Q9H2X6)",100%
"Ribosomal protein S6 kinase alpha-5 (RPS6KA5, Homo sapiens, UniProt O75582)",92.8%
"Homeodomain-interacting protein kinase 4 (HIPK4, Homo sapiens, UniProt Q8NE63)",90.5%
"MAP kinase-activated protein kinase 3 (MAPKAPK3, Homo sapiens, UniProt Q16644)",99.1%
"Cyclin-dependent kinase 6, with cyclin D3 (CDK6, Homo sapiens, UniProt Q00534)",119%
"Ephrin type-A receptor 4 (EPHA4, Homo sapiens, UniProt P54764)",105%
"Tyrosine-protein kinase Srms (SRMS, Homo sapiens, UniProt Q9H3Y6)",92.9%
"cAMP-dependent protein kinase catalytic subunit gamma (PRKACG, Homo sapiens, UniProt P22612)",109%
"Ephrin type-B receptor 4 (EPHB4, Homo sapiens, UniProt P54760)",83.9%
"Calcium/calmodulin-dependent protein kinase type II subunit beta (CAMK2B, Homo sapiens, UniProt Q13554)",104%
"Tyrosine-protein kinase receptor UFO (AXL, Homo sapiens, UniProt P30530)",101%
"Ephrin type-B receptor 1 (EPHB1, Homo sapiens, UniProt P54762)",100%
"3-phosphoinositide-dependent protein kinase 1 (PDPK1, Homo sapiens, UniProt O15530)",87.4%
"Cyclin-dependent kinase 1, with cyclin B (CDK1, Homo sapiens, UniProt P06493)",95.7%
"Serine/threonine-protein kinase 16 (STK16, Homo sapiens, UniProt O75716)",100%
"Dual specificity tyrosine-phosphorylation-regulated kinase 3 (DYRK3, Homo sapiens, UniProt O43781)",105%
"Testis-specific serine/threonine-protein kinase 2 (TSSK2, Homo sapiens, UniProt Q96PF2)",88.6%
"Serine/threonine-protein kinase 17A (STK17A, Homo sapiens, UniProt Q9UEE5)",100%
"Phosphorylase b kinase gamma catalytic chain, skeletal muscle/heart isoform (PHKG1, Homo sapiens, UniProt Q16816)",92%
"Cyclin-dependent kinase 4, with cyclin D3 (CDK4, Homo sapiens, UniProt P11802)",98.4%
"Mitogen-activated protein kinase kinase kinase kinase 4 (MAP4K4, Homo sapiens, UniProt O95819)",108%
"Ribosomal protein S6 kinase alpha-6 (RPS6KA6, Homo sapiens, UniProt Q9UK32)",101%
"Tyrosine-protein kinase Blk (BLK, Homo sapiens, UniProt P51451)",100%

# Study 2
# SMILES: CCN(c1nc(N)c(C(=O)N=C(N)N)nc1Cl)C(C)C
# Read-out: β-arrestin recruitment
# Action: agonist
# Method: PRESTO-Tango
# Tested at: 10 µM
# Relative to: untreated
target,fold over basal
"Adenosine receptor A2a (ADORA2A, Homo sapiens, UniProt P29274)",1.19
"P2Y purinoceptor 12 (P2RY12, Homo sapiens, UniProt Q9H244)",1.14
"Neuromedin-U receptor 1 (NMUR1, Homo sapiens, UniProt Q9HB89)",1.41
"Adrenocorticotropic hormone receptor (MC2R, Homo sapiens, UniProt Q01718)",0.93
"Probable G-protein coupled receptor 156 (GPR156, Homo sapiens, UniProt Q8NFN8)",1.09
"Growth hormone secretagogue receptor type 1 (GHSR, Homo sapiens, UniProt Q92847)",1.62 fold
"5-hydroxytryptamine receptor 2C (HTR2C, Homo sapiens, UniProt P28335, I156V/I160V)",0.46
"Relaxin-3 receptor 1 (RXFP3, Homo sapiens, UniProt Q9NSD7)",1.85
"ADGRG1 (Homo sapiens, UniProt Q9Y653)",0.88
"Hydroxycarboxylic acid receptor 1 (HCAR1, Homo sapiens, UniProt Q9BXC0)",0.86 fold

# Study 3
# Target: Diamine acetyltransferase 1 (Homo sapiens, UniProt P21673)
# Action: inhibitor
# Tested at: 10 µM
# Relative to: control
# Target sequence (P21673 1-171): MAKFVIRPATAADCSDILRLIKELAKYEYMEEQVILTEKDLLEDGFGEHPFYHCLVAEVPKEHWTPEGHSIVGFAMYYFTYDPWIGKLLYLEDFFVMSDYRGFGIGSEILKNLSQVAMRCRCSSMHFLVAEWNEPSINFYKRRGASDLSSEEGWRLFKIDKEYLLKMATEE
SMILES,remaining activity [%]
C[C@H](N)C(=O)O,91.3
COc1c2ccoc2c(OCC=C(C)C)c2oc(=O)ccc12,122
CC1=CC=CC(C)(C)CC1=O,114
CCC/C=C/C=O,105
NC(Cc1c[nH]c2ccccc12)C(=O)O (racemic),92.6
CO[C@@H]1[C@H](O)[C@@H](CO)O[C@H]1n1cnc2c(N)ncnc21,99.1
COC(=O)c1cccnc1,92.7
NC(N)=NCCC[C@H](N)C(=O)O,81.9
CCCSSC,90.2
COc1ccc(-c2cc(=O)c3c(O)cc(O[C@@H]4O[C@H](CO[C@@H]5O[C@@H](C)[C@H](O)[C@@H](O)[C@H]5O)[C@@H](O)[C@H](O)[C@H]4O)cc3o2)cc1,111
COc1ccc(-c2coc3c([C@@H]4O[C@H](CO)[C@@H](O)[C@H](O)[C@H]4O)c(O)ccc3c2=O)cc1,90.2

# Study 4
# SMILES: Cc1noc([C@H]2C[C@@H](c3ccc(C(F)(F)F)cc3)CN(C(=O)N3CCS(=O)(=O)C3)C2)n1
# Read-out: cell-free assay
# Method: competition with immobilised ligand
# Tested at: 1 µM
target,remaining binding
"Tyrosine-protein kinase CSK (CSK, Homo sapiens, UniProt P41240)",100%
"NUAK family SNF1-like kinase 2 (NUAK2, Homo sapiens, UniProt Q9H093)",100%
"Phosphorylase b kinase gamma catalytic chain, liver/testis isoform (PHKG2, Homo sapiens, UniProt P15735)",100%
"Protein kinase C eta type (PRKCH, Homo sapiens, UniProt P24723)",95%
"Tyrosine-protein kinase JAK1, JH1 (JAK1, Homo sapiens, UniProt P23458)",98%
"Tyrosine-protein kinase ABL1, non-phosphorylated (ABL1, Homo sapiens, UniProt P00519, Q252H)",100%
"Serine/threonine-protein kinase PAK 4 (PAK4, Homo sapiens, UniProt O96013)",100%
"Cyclin-dependent kinase 8 (CDK8, Homo sapiens, UniProt P49336)",100%
"Activin receptor type-1 (ACVR1, Homo sapiens, UniProt Q04771)",100%
"3-phosphoinositide-dependent protein kinase 1 (PDPK1, Homo sapiens, UniProt O15530)",95%
"Rhodopsin kinase GRK7 (GRK7, Homo sapiens, UniProt Q8WTQ7)",100%
"Serine/threonine-protein kinase TAO2 (TAOK2, Homo sapiens, UniProt Q9UL54)",76%
"Tyrosine-protein kinase Lck (LCK, Homo sapiens, UniProt P06239)",100%
"Phosphatidylinositol 4,5-bisphosphate 3-kinase catalytic subunit alpha isoform (PIK3CA, Homo sapiens, UniProt P42336)",99%
"Tyrosine-protein kinase ITK/TSK (ITK, Homo sapiens, UniProt Q08881)",100%
"Tyrosine-protein kinase ABL1, phosphorylated (ABL1, Homo sapiens, UniProt P00519, F317L)",85%
"Serine/threonine-protein kinase PAK 3 (PAK3, Homo sapiens, UniProt O75914)",100%
"Serine/threonine-protein kinase SIK3 (SIK3, Homo sapiens, UniProt Q9Y2K2)",78%
"Ribosomal protein S6 kinase beta-1 (RPS6KB1, Homo sapiens, UniProt P23443)",75%
"Mitogen-activated protein kinase 9 (MAPK9, Homo sapiens, UniProt P45984)",99%
"Hormonally up-regulated neu tumor-associated kinase (HUNK, Homo sapiens, UniProt P57058)",100%
"Mitogen-activated protein kinase kinase kinase 10 (MAP3K10, Homo sapiens, UniProt Q02779)",96%
"Serine/threonine-protein kinase NIM1 (NIM1K, Homo sapiens, UniProt Q8IY84)",100%
"Serine/threonine-protein kinase tousled-like 1 (TLK1, Homo sapiens, UniProt Q9UKI8)",100%
"Mitogen-activated protein kinase kinase kinase 2 (MAP3K2, Homo sapiens, UniProt Q9Y2U5)",99%

# Excerpt of the above (study 4):
target,remaining binding
"Tyrosine-protein kinase ABL1, phosphorylated (ABL1, Homo sapiens, UniProt P00519, F317L)",85%
"Serine/threonine-protein kinase PAK 3 (PAK3, Homo sapiens, UniProt O75914)",100%
"Serine/threonine-protein kinase SIK3 (SIK3, Homo sapiens, UniProt Q9Y2K2)",78%
"Ribosomal protein S6 kinase beta-1 (RPS6KB1, Homo sapiens, UniProt P23443)",75%
"Mitogen-activated protein kinase 9 (MAPK9, Homo sapiens, UniProt P45984)",99%
"Hormonally up-regulated neu tumor-associated kinase (HUNK, Homo sapiens, UniProt P57058)",100%
"Mitogen-activated protein kinase kinase kinase 10 (MAP3K10, Homo sapiens, UniProt Q02779)",96%
"Serine/threonine-protein kinase NIM1 (NIM1K, Homo sapiens, UniProt Q8IY84)",100%
"Serine/threonine-protein kinase tousled-like 1 (TLK1, Homo sapiens, UniProt Q9UKI8)",100%
